{"data": "Measured values pooled from the literature", "note": "Lines come from different studies, so protocols differ. ± gives the spread as reported."}
{"SMILES": "CN1CC23C4C=CC5C4C4C2C=CC4C53C1", "cell line": "dog cells", "test": "cytotoxicity", "setting": "3 (unit not given)", "CC50": "≥ 74 µM"}
{"SMILES": "Oc1ccc([C@@H]2Oc3ccc(/C=C/c4cc(O)cc(O)c4)cc3[C@H]2c2cc(O)cc(O)c2)cc1", "cell line": "dog cells", "setting": "24 (unit not given)", "CC50": "184 µM"}
{"SMILES": "O=C(NCc1cc(Cl)ccc1F)c1cn(Cc2ccc(F)cc2)cc(O)c1=O", "cell line": "HFF", "test": "cell growth or viability, MTS", "setting": "7 days", "CC50": "5.3 µM"}
{"SMILES": "CC1CCC(C(C)(C)C(=O)Nc2ccc(Oc3ccccc3)cc2)CC1 (centres unmarked)", "cell line": "BaF3", "test": "cell growth or viability, ATP luminescence", "setting": "72 h", "CC50": "> 12.5 µM"}
{"SMILES": "CN1CC(=O)N=C1N.C[C@H](CCC(=O)O)[C@H]1CC[C@H]2[C@@H]3CC[C@@H]4C[C@H](O)CC[C@]4(C)[C@H]3CC[C@]12C", "cell line": "A549-hACE2", "CC50": "> 50 µg/mL"}
{"SMILES": "CNCC12C3CCC4C3C3C(CCC31)C42", "cell line": "dog cells", "test": "cytotoxicity", "setting": "3 (unit not given)", "CC50": "> 100 µM"}
{"SMILES": "COc1cn(Cc2ccc(F)cc2)cc(C(=O)NCc2ccc(F)cc2F)c1=O", "cell line": "HFF", "test": "cell growth or viability, MTS", "setting": "7 days", "CC50": "> 50 µM"}
{"SMILES": "CN(C)CC12C3CCC4C3C3C(CCC31)C42", "cell line": "dog cells", "test": "cytotoxicity", "setting": "3 (unit not given)", "CC50": "47 µM"}
{"SMILES": "C=CC1=C(C)c2cc3nc(cc4[nH]c(cc5[nH]c(cc1n2)c(C)c5C=C)c(C)c4CCC(=O)OCCCCCCCCCCCCCCCCCC)C(CCC(=O)O)=C3C", "cell line": "dog cells", "CC50": "140 ± 1.58 µM"}
{"SMILES": "Brc1c(Br)c(Br)c2[nH]nnc2c1Br", "cell line": "Huh-7, mock-infected", "test": "MTS", "setting": "4 (unit not given)", "CC50": "30.9 ± 1.6 µM"}
{"SMILES": "CC(C)=CCNCCOC1C2CC3CC(C2)CC1C3 (centres unmarked)", "cell line": "HEK-293T", "test": "cell growth or viability", "CC50": "9.2 µg/mL"}
{"SMILES": "C=C(C)[C@@H]1CC[C@]2(C(=O)N3CCN(C)CC3)CC[C@]3(C)[C@H](CC[C@@H]4[C@@]5(C)CCCNC(C)(C)[C@@H]5CC[C@]43C)[C@@H]12", "cell line": "HFF", "test": "cell growth or viability, ATP luminescence", "CC50": "86.5 µM"}
{"SMILES": "O=C(NCc1cccc2[nH]cc(C(=O)C(F)(F)F)c12)c1cn(Cc2ccc(F)cc2)cc(O)c1=O", "cell line": "HFF", "test": "cell growth or viability, MTS", "setting": "7 days", "CC50": "12 µM"}
{"SMILES": "CCC1(CC)C2CC3CC(C2)CC1(N)C3", "cell line": "dog cells", "test": "cytotoxicity", "setting": "3 (unit not given)", "CC50": "> 100 µM"}
{"SMILES": "CC(C)C[C@@H]1NC(=O)CNC(=O)[C@H](CC(N)=O)NC(=O)[C@H](CCCNC(=N)N)NC(=O)[C@H]([C@@H](C)O)NC(=O)[C@@H]2CSSC[C@@H]3NC(=O)[C@H]([C@@H](C)O)NC(=O)CNC(=O)CNC(=O)[C@H](C(C)C)NC(=O)[C@@H]4CSSC[C@H](NC(=O)[C@H]([C@@H](C)O)NC(=O)[C@H](CSSC[C@H](NC(=O)[C@H](C(C)C)NC(=O)[C@@H]5CCCN5C1=O)C(=O)NCC(=O)N[C@@H](CCC(=O)O)C(=O)N[C@@H]([C@@H](C)O)C(=O)N4)NC(=O)CNC(=O)[C@@H]1CCCN1C(=O)[C@H]([C@@H](C)O)NC(=O)[C@H](CC(N)=O)NC3=O)C(=O)N[C@@H](CO)C(=O)N[C@@H](Cc1c[nH]c3ccccc13)C(=O)N1CCC[C@H]1C(=O)N[C@@H](C(C)C)C(=O)N2", "cell line": "HeLa", "test": "resazurin", "setting": "24 h", "CC50": "6.42 ± 0.59 µM"}
{"SMILES": "CC(=N)NC12C3CCC4C3C3C(CCC31)C42", "cell line": "dog cells", "test": "cytotoxicity", "setting": "3 (unit not given)", "CC50": "14 µM"}
{"SMILES": "C=CCCC[C@](C)(N)C(=O)N[C@@H](C)C(=O)N[C@@H](Cc1ccc(O)cc1)C(=O)N[C@@H](Cc1ccccc1)C(=O)N[C@@](C)(CCCC=C)C(=O)N[C@@H](CC(C)C)C(=O)N[C@@H](CCCCN)C(=O)N[C@@H](CC(C)C)C(=O)N[C@@H](C)C(=O)NCC(=O)N[C@@H](CCCNC(=N)N)C(=O)N[C@@H](Cc1c[nH]c2ccccc12)C(N)=O", "cell line": "MT-4", "CC50": "5 µM"}
{"note": "Repeated from above:"}
{"SMILES": "Oc1ccc([C@@H]2Oc3ccc(/C=C/c4cc(O)cc(O)c4)cc3[C@H]2c2cc(O)cc(O)c2)cc1", "cell line": "dog cells", "setting": "24 (unit not given)", "CC50": "184 µM"}
